Published values of several laboratories.
Parts stem from different laboratories: compare values within a part only.

Sample 1
Target: Calcium/calmodulin-dependent protein kinase type II subunit alpha (CAMK2A, Homo sapiens, UniProt Q9UQM7)
Observed: enzyme activity
Action: inhibitor
Concentration: 10 µM
| SMILES | inhibition [%] |
| --- | --- |
| C[C@]12CCC(=O)C=C1CC[C@@H]1[C@@H]2[C@@H](O)C[C@@]2(C)[C@H]1CC[C@]2(O)C(=O)COC(=O)CCC(=O)O | -19 |
| COC(=O)C[C@](O)(CCCC(C)(C)O)C(=O)O[C@@H]1C(OC)=C[C@]23CCCN2CCc2cc4c(cc2[C@H]13)OCO4 | -1 |
| COC(=O)[C@@]1(C)CC[C@]2(C(=O)O[C@@H]3O[C@H](CO)[C@@H](O)[C@H](O)[C@H]3O)CC[C@]3(C)C(=CC[C@@H]4[C@@]5(C)C[C@H](O)[C@H](O[C@@H]6OC[C@@H](O[C@@H]7O[C@H](CO)[C@@H](O)[C@H](O)[C@H]7O)[C@H](O)[C@H]6O)[C@@](C)(CO)[C@@H]5CC[C@]43C)[C@@H]2C1 | -54 |
| Cc1cc(O)cc(C)c1Cl | -12 |
| COc1ccc(-c2cc(=O)c3c(O)cc(O[C@@H]4O[C@H](CO)[C@@H](O)[C@H](O)[C@H]4O[C@@H]4O[C@@H](C)[C@H](O)[C@@H](O)[C@H]4O)cc3o2)cc1O | -7 |
| Oc1cc(O)cc(/C=C/c2ccc(O)c(O)c2)c1 | 56 |
| CC(=O)O[C@H]1CC(=O)OC(C)(C)[C@@H]2CC(=O)[C@]3(C)[C@H](CC[C@@]4(C)[C@H](c5ccoc5)OC(=O)[C@H]5O[C@]543)[C@@]12C | -20 |
| OCCN1CCN(CC/C=C2/c3ccccc3Sc3ccc(C(F)(F)F)cc32)CC1 | 7 |
| CC1=C(/C=C/C(C)=C/C=C/C(C)=C/C(=O)O)C(C)(C)CCC1 | 4 |
| CC(COc1ccccc1)NC(C)C(O)c1ccc(O)cc1 (stereo not drawn) | -7 |
| O=C(NC1CCNCC1)[C@@H]1CC[C@@H]2CN1C(=O)N2OS(=O)(=O)O | -6 |
| CC(C)(O)[C@@H](O)COc1c2ccoc2cc2oc(=O)ccc12 | -26 |
| C=C1CC[C@@H]2[C@](C)(CO)[C@H](O)CC[C@@]2(C)[C@@H]1/C=C/C1=CCOC1=O | 7 |
| C/C=C(/C)C(=O)O[C@H]1c2c(ccc3ccc(=O)oc23)OC(C)(C)[C@H]1OC(=O)/C(C)=C\C | 2 |

Sample 2
Species: mouse
Sample: microsomes or S9
Concentration: 2 µM
Time: 0.5 h
| SMILES | remaining compound [%] |
| --- | --- |
| Cc1cc(C)n(CCCN(C)Cc2cn(C(C)C)c3cc(F)ccc23)n1 | 2.76 |
| COC(=O)C(OC(C)(C)C)c1cc2c(nc1C)C(=O)NCC2 (stereo not drawn) | 99.3 |
| O=C(COc1ccccc1-c1nnc[nH]1)N1CCc2ccccc21 | 2.82 |
| CCc1ncnc(Nc2cnn(Cc3nnc4n3CCCC4)c2)c1F | 85.6 |
| CCN1C(=O)C2(NC(C)Cc3c2[nH]c2ccccc32)c2ccccc21 (stereo not drawn) | 0.839 |
| CCC1(CC)NC(=O)N(Cc2cc3ccc(C)c(C)c3nc2Cl)C1=O | 0.258 |
| CCN(CC)C(=O)Cn1nc(S(C)(=O)=O)nc1-c1ccccc1OC | 87.7 |
| CCCOc1cccc([C@@H]2c3ccc(OC)cc3OC(=O)[C@H]2C(C)(C)O)c1 | 18.1 |
| CCC(C)NC(=O)c1ccc2c(=O)n(C(C)C)c3nn(CC(=O)Nc4ccc(C(C)C)cc4)c(=O)n3c2c1 (stereo not drawn) | 56.9 |
| COc1ccc(Br)cc1CNC(=O)C(C)n1nc(C)n2c(cc3occc32)c1=O (stereo not drawn) | 0.897 |
| O=S1(=O)N=C(NCCc2cccs2)c2ccccc21 | 13.8 |
| CCCOc1ccc(Oc2nc3ccccc3n3cnnc23)cc1 | 12.7 |
| CCc1ccccc1NC(=O)NCCNc1nc(C)cc(N2CCCCC2)n1 | 0.699 |
| CC(C)c1nc(COc2ccccc2-c2ccnc(N)n2)no1 | 0.0527 |

Sample 3
Structure (SMILES): CN1CCN(C(=O)c2ccc(NC(=O)Nc3ccc(N(C)c4ccnc(Nc5ccc(CS(C)(=O)=O)cc5)n4)cc3)cc2)CC1
Concentration: 1 µM
| target | assay | conditions | scale | remaining binding [%] |
| --- | --- | --- | --- | --- |
| MAP3K14 (Homo sapiens, UniProt Q99558) | competitive binding | NIK | – | 100 |
| MAP3K15 (Homo sapiens, UniProt Q6ZN16) | competitive binding panel | – | baseline: vehicle | 86 |
| EPHA8 (Homo sapiens, UniProt P29322) | competitive binding panel | – | baseline: vehicle | 89 |
| PIM1 (Homo sapiens, UniProt P11309) | competitive binding panel | – | baseline: vehicle | 100 |
| PIK3CD (Homo sapiens, UniProt O00329) | competitive binding panel | – | baseline: vehicle | 100 |
| RIPK1 (Homo sapiens, UniProt Q13546) | competitive binding panel | – | baseline: vehicle | 100 |
| RIPK2 (Homo sapiens, UniProt O43353) | competitive binding panel | – | baseline: vehicle | 94 |
| MAPKAPK5 (Homo sapiens, UniProt Q8IW41) | competitive binding panel | – | baseline: vehicle | 84 |

Sample 4
SMILES: COc1cc2ncnc(N3CCN(C(=O)Nc4ccc(Oc5ccccc5)cc4)CC3)c2cc1OC
Observed: enzyme activity
Action: inhibitor
Concentration: 0.5 µM
Baseline: control
| target | remaining activity |
| --- | --- |
| FYN (Homo sapiens, UniProt P06241) | 112% |
| PKN1 (Homo sapiens, UniProt Q16512) | 103% |
| MARK3 (Homo sapiens, UniProt P27448) | 80.4% |
| NLK (Homo sapiens, UniProt Q9UBE8) | 99.9% |
| HIPK1 (Homo sapiens, UniProt Q86Z02) | 96.9% |
| NEK11 (Homo sapiens, UniProt Q8NG66) | 107% |
| STK25 (Homo sapiens, UniProt O00506) | 100% |
| CDC42BPA (Homo sapiens, UniProt Q5VT25) | 95.4% |
| ALK (Homo sapiens, UniProt Q9UM73) | 101% |
| TAOK3 (Homo sapiens, UniProt Q9H2K8) | 95.3% |
| Insulin receptor (INSR, Homo sapiens, UniProt P06213) | 98.2% |
| FLT4 (Homo sapiens, UniProt P35916) | 101% |
| PASK (Homo sapiens, UniProt Q96RG2) | 97.7% |
| FGR (Homo sapiens, UniProt P09769) | 98.8% |
| LIM domain kinase 1 (LIMK1, Homo sapiens, UniProt P53667) | 69.8% |
| AKT1 (Homo sapiens, UniProt P31749) | 93.7% |
| FER (Homo sapiens, UniProt P16591) | 99.8% |
| Cyclin-dependent kinase 3, with cyclin E (CDK3, Homo sapiens, UniProt Q00526) | 82% |
| PRKX (Homo sapiens, UniProt P51817) | 99.3% |
| ITK (Homo sapiens, UniProt Q08881) | 88.1% |
| MATK (Homo sapiens, UniProt P42679) | 96.8% |

For quick reference, copied from above (sample 2):
| SMILES | remaining compound [%] |
| --- | --- |
| CCN1C(=O)C2(NC(C)Cc3c2[nH]c2ccccc32)c2ccccc21 (stereo not drawn) | 0.839 |
| CCC(C)NC(=O)c1ccc2c(=O)n(C(C)C)c3nn(CC(=O)Nc4ccc(C(C)C)cc4)c(=O)n3c2c1 (stereo not drawn) | 56.9 |
| CCCOc1cccc([C@@H]2c3ccc(OC)cc3OC(=O)[C@H]2C(C)(C)O)c1 | 18.1 |
| O=S1(=O)N=C(NCCc2cccs2)c2ccccc21 | 13.8 |
| COC(=O)C(OC(C)(C)C)c1cc2c(nc1C)C(=O)NCC2 (stereo not drawn) | 99.3 |
| Cc1cc(C)n(CCCN(C)Cc2cn(C(C)C)c3cc(F)ccc23)n1 | 2.76 |
| CCC1(CC)NC(=O)N(Cc2cc3ccc(C)c(C)c3nc2Cl)C1=O | 0.258 |
| O=C(COc1ccccc1-c1nnc[nH]1)N1CCc2ccccc21 | 2.82 |
